Experimental data gathered from unrelated publications.
A part holds a random share of what one study measured. Substitutions count along the parent as printed.

Block 1
Target: Histone acetyltransferase KAT6A, both winged helices, GST fusion (KAT6A, Homo sapiens, UniProt Q92794, residues 1-181)
Technique: protein binding microarray
Molecule type: double-stranded DNA, one strand shown
Matrix: in vitro
Tested at: not given
Setting: 8-mer, flanks averaged, mean of 2 arrays, mostly near background
Baseline: not given
Reading: higher = stronger binding
Construct (chain): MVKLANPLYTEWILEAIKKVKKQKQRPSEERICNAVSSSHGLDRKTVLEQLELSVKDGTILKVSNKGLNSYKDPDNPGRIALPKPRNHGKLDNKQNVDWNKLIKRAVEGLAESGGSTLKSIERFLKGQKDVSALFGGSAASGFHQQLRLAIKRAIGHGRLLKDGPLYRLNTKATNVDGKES
`CGACCCAA` has an E-score of -0.128.
`ATTATGAC` gave an E-score of -0.0185.
`ACCAATCA` has an E-score of -0.234.
For `CATGACCA`, the E-score was -0.154.
`AGAATAGA` gave an E-score of -0.209.
`ACAAATAG` has an E-score of 0.0582.
`CCTATGTC` has an E-score of -0.242.
The E-score of `AGTGTTAT` is reported as -0.137.
With `CCACATCG` the E-score was 0.151.
For `ATGCCCTA`, the E-score was -0.243.
`AGGTGAAG` gave an E-score of -0.158.
`ACGACCGC` gave an E-score of 0.223.
The E-score of `CAAGTAGA` is reported as -0.127.
The E-score of `GGTGGAAA` is reported as -0.0861.

Block 2
Target: RING finger protein unkempt homolog, zinc fingers 1-6, SBP tag (UNK, Homo sapiens, UniProt Q9C0B0, residues 30-357)
Sequence of UniProt Q9C0B0 (30-357, looked up): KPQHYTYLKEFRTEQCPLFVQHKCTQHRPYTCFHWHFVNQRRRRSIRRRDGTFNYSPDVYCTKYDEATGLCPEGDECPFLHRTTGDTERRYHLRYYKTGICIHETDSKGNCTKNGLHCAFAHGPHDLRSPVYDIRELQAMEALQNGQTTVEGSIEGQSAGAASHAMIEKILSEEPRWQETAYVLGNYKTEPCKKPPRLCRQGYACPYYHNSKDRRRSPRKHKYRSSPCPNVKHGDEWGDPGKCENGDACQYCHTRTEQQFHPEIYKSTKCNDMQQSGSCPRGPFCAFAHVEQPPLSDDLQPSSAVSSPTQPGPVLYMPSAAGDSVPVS
Technique: RNA Bind-n-Seq
Molecule type: RNA
Matrix: in vitro
Tested at: 100 nM
Setting: RNA with constant flanks, vertebrate orthologous sites, ends assumed
Baseline: input RNA pool
Reading: higher = stronger binding
`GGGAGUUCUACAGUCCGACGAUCGUGGGGAUGAGGGUGGGAUGGGAAAGGGAUGUAUGGAUGUUAUUGGCAUUUUUAAGUGUUUAGAGUUUUUUGGGGUUUGGGGUGGUUUUUUUUCCUUGUUUUCCUUUUUUCCUUUUAAUUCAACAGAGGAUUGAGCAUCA` has a bound/input enrichment of 2.2 ratio.
With `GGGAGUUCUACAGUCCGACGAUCUUCACCACUCCUGGGUGCAUGAUUGAGGGUGAAGCAUCCACCAGCACUUCAAGGGGUCCAUAGUAUUUUUUUUUUGCUGCCUCAAAGUCCCCAAAGCCUUCGAGCAGAAGUGGCAGUAGACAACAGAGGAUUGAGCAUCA` the bound/input enrichment was 1.29 ratio.
`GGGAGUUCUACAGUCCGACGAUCUGCAUUAUUUGACCAGAGUUGAAGUGACAGAAUUUGAAGAUAUUAAAUCAGGUUACAGAAUAGAUUUUUAUUUUGAUGAAAAUCCUUACUUUGAAAAUAAAGUUAUCUCCAAAGAAUUUCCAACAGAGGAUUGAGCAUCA` gave a bound/input enrichment of 0.203 ratio.
With `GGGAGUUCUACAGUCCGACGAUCAAAUUCCCCCAUUGUCACUGAGAACCACCAAAUCUGACUUUUACAUUUGGUCUCAGAAUUUAGGUUCCUGCCCUGUUGGUUUUUUUUUUUUUUUUUUAAACCGUUUUCAAAAGUUCUUAACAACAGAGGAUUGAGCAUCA` the bound/input enrichment was 0.972 ratio.
With `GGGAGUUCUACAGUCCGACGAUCUUGUUUUUGUUUUGCACAUGACAGUGUGUGUAUUGAUCUGAGAAAGGAGGAGGGGUGCUGGCGCAGUUGGCCUCCAGUGCCCCCCACCCUCAACACCCCACCUGGUAUCUUUGCCACGUUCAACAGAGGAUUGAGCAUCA` the bound/input enrichment was 0.229 ratio.
`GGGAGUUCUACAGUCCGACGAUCUCAUUGUACAGGAGAAGUCAUCCUACUUCUAAACUAGCCAAAGUAAUCACCAGUCUGCAGUAAUAGAAUCAUUUGCUAUUACCUUUUAAAUCAUCUGUUUUGUGAGAUAUCUGAAAUGUACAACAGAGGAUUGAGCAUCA` has a bound/input enrichment of 0.896 ratio.
`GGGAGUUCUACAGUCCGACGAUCAUUAGCUGCCUCUGAUCAGGGGACACCAAACGGAGCAAGGAGUAAAAUUGCUGCCAUGUGCACAAUGGCUACACCACAGUCCCUCUUCUGUGUAAAACCAGCUGUGUGUAAGUGUUGAGGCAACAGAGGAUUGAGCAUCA` has a bound/input enrichment of 0.239 ratio.

Block 3
Target: CCNB3, cyclin fold, Cln2 fusion (human)
Technique: yeast growth competition, sequencing
Matrix: yeast
Setting: weak parent motif
Baseline: not given
Reading: higher = stronger binding
Starting sequence: E2F1 docking peptide (human); PPVKRRLDLETDH; partner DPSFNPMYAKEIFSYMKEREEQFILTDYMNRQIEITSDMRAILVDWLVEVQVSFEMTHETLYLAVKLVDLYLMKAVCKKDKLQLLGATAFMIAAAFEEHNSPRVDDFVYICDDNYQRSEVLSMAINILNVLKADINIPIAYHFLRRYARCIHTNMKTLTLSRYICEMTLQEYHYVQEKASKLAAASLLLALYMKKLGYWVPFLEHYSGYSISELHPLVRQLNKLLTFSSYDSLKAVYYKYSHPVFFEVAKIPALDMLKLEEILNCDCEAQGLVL
For `P1I`, “normalised enrichment score” read 0.313.
`T11P` — result for “normalised enrichment score”: 0.927.
`L7C`: “normalised enrichment score” 0.148.
Under “normalised enrichment score”, `T11C` is recorded as -0.116.
`K4N` — result for “normalised enrichment score”: 0.381.
For `L7T`, “normalised enrichment score” read 0.466.
`D12H`: “normalised enrichment score” 0.104.
`L9F`: “normalised enrichment score” 2.12.
`H13P` — result for “normalised enrichment score”: 0.721.
`K4W` — result for “normalised enrichment score”: 0.409.
For `E10Q`, “normalised enrichment score” read 0.365.
For `K4F`, “normalised enrichment score” read 0.356.
Under “normalised enrichment score”, `D12T` is recorded as 0.137.
Under “normalised enrichment score”, `R5V` is recorded as 0.194.
`L7S`: “normalised enrichment score” 0.553.

Block 4
Target: RNA binding protein fox-1 homolog 2, RRM domain, GST-SBP tag (RBFOX2, Homo sapiens, UniProt O43251-10, residues 100-194)
Technique: RNA Bind-n-Seq
Molecule type: RNA
Matrix: in vitro
Tested at: 365 nM
Setting: natural RNA segment, single round, ends assumed
Baseline: no-protein control
Reading: higher = stronger binding
For `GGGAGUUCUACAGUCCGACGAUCAGGCAAAUGGAAUUGCUUUUCCAUAACAUCCAAAUUGUAAUGUGGUUGCUGCUGAAGGAGGAGGCAGCAGCGAGGUCCUGCGGUACCCAUGGGGUGAUGCUACUUCUGCAUGGAAUUCUCGGGUGCCAA`, “RBNS enrichment (R)” read 1.15.
For `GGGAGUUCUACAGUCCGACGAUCACAUUGGAUUCCCCAGUGAGAUCAUCUAGAAACCAUCUAAAUAAACCACUCUAUAUUUUAUGAAUUACAUGUGGGUUUUUUAUAUAUAAAAACAUAUGCGCUGACAUUUUUGGAAUUCUCGGGUGCCAA`, “RBNS enrichment (R)” read 0.6.
`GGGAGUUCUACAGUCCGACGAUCCUGAUGUCAGUGAACGGAACUGAAGAGCAAGACAUGGAGCCUGGCUGGGGCUAAGCAGCCCCCUCCUCCGGAUGGCACAGGCUCUGCUAGGUUCCGGACACAGGCUUCUGUGGAAUUCUCGGGUGCCAA`: “RBNS enrichment (R)” 0.414.
For `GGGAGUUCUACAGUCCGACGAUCUUUGUCAGGAUAACGUCAUAUAGCAUCUUGUUUGUUUUUCCUUAUCUCUAUGUACAUAUCUAUCUACUUCUGACUGUAGAUGGGUAUAUAGAUAGAUGCCAAGCUUCUUAUGGAAUUCUCGGGUGCCAA`, “RBNS enrichment (R)” read 1.87.
`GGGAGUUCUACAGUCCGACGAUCAGGUCUAUUCGGAUUGCAUAGGGGUAUAUUAAUAUAUUUUAAACUCACCUAGAUUACACUCAAUUGAUACCCACUCAUGAAGAUUUUGCUGAGAUUUUAUGAUUCCAGGUUGGAAUUCUCGGGUGCCAA` — result for “RBNS enrichment (R)”: 0.716.
For `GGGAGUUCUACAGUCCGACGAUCGCAGUCAGAAGAAUGUGAAGGAUGUCUGCGCUGCAGCCUCCAGUGCUGGGUACGCUUCUCUCGUGGGGAAGGGCCGUGUCCAGGCAUGUGGAUGGCUUGAAGACUACUGAUGGAAUUCUCGGGUGCCAA`, “RBNS enrichment (R)” read 1.01.
`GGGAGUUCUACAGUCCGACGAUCUGGAAAUAUGUUCUUUCUAGUUGUGGGUACCCUGAUCUAGGUGGUUUGUAAUUGUGCAUUACUGACUGCAUAUGUUUGUGUAUGUGUAAAUGUGGGCUCCCUGUUAAGUGUGGAAUUCUCGGGUGCCAA`: “RBNS enrichment (R)” 0.986.
`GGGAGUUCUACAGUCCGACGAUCAGCCCCUUAGCCCAUGUCAUGUCAGUGGCCACUGCCCACAGGUGCCACCUUGCCCACCGCAUGACCCCUUGUGCCAGUCGCGCAGCUGUGUGUGGUGUCGCGCCCUCUCCUGGAAUUCUCGGGUGCCAA` — result for “RBNS enrichment (R)”: 0.792.

Block 5
Target: ABI1, truncated, D143A, DHFR fusion (Arabidopsis thaliana)
Technique: DHFR PCA, deep sequencing
Matrix: yeast
Setting: methotrexate growth selection, single substitutions
With: (+)-ABA 0.39 µM
Baseline: wild-type fitted maximum
Reading: higher = stronger binding
Starting sequence: PYL1, truncated, DHFR fusion (Arabidopsis thaliana); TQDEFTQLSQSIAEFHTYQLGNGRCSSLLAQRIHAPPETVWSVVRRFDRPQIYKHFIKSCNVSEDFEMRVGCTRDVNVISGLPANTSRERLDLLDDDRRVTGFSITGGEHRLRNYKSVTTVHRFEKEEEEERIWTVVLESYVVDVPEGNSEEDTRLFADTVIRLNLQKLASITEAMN; partner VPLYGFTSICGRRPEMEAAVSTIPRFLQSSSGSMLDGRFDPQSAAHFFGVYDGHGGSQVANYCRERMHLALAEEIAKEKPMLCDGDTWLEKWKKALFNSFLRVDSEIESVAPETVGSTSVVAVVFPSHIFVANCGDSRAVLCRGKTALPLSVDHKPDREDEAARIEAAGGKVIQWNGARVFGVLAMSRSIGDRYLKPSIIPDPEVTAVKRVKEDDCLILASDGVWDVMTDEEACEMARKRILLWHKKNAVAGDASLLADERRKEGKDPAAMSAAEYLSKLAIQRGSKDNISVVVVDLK
`V43W`: “relative binding score” -3.8%.
`T160Y`: “relative binding score” 27%.
`R24Y`: “relative binding score” -4.43%.
For `V142F`, “relative binding score” read -2.27%.
Under “relative binding score”, `L8A` is recorded as 6.21%.
`D92S` — result for “relative binding score”: -3.41%.
For `A170K`, “relative binding score” read 58.9%.
`S27C` — result for “relative binding score”: 0.425%.
For `T106C`, “relative binding score” read 24.2%.
`V136P` — result for “relative binding score”: 1.15%.
`E127N` — result for “relative binding score”: 52.7%.
`K168I`: “relative binding score” -16%.
`K54D`: “relative binding score” 2.38%.
`E127K`: “relative binding score” 62.4%.
For `E131M`, “relative binding score” read 47.1%.
`S140D` — result for “relative binding score”: -11.4%.
`Y18H`: “relative binding score” 51.6%.

For quick reference, copied from above (block 5):
`R24Y`: “relative binding score” -4.43%.
For `V142F`, “relative binding score” read -2.27%.
Under “relative binding score”, `L8A` is recorded as 6.21%.
`D92S` — result for “relative binding score”: -3.41%.
For `A170K`, “relative binding score” read 58.9%.
`S27C` — result for “relative binding score”: 0.425%.
For `T106C`, “relative binding score” read 24.2%.
`V136P` — result for “relative binding score”: 1.15%.
`E127N` — result for “relative binding score”: 52.7%.
